Measurements pooled from the literature.
Compare with care: the assays were run in different laboratories. Values joined by “and” are separate records of one study, mostly repeats; a detail may differ. Numbers after ± are the reported error.

With COC(=O)[C@H](C)NC(=O)c1ccccc1NC(=O)[C@H](Cc1ccc(OC(C)(C)C)cc1)N(C)C(=O)[C@@H](NC(=O)OCc1ccccc1)C(C)C the fold potentiation was 32 (Candida albicans; potentiator, broth microdilution; ATCC 90029; 16.0 µg/mL, added: amphotericin B; baseline: amphotericin B alone).
c1ccc(CN2CCOCCOCCN(CCCCCCCCCCCCN3CCOCCOCCN(CCCCCCCCCCCCN4CCOCCOCCN(Cc5ccccc5)CCOCCOCC4)CCOCCOCC3)CCOCCOCC2)cc1 has an FIC index of 0.58 (Klebsiella pneumoniae; checkerboard; ATCC BAA-2146; quarter MIC, added: tetracycline).
CCC1(CC)CC(=O)N(C2CCOc3ccc(C(=O)NC4CC(C)(C)Oc5ccccc54)cc32)C(=N)N1 (stereo not shown) gave an EC50 of < 1 nM (Plasmodium vivax; invasion of reticulocytes; field isolates; ex vivo).
Nc1ncc(-c2cc(-c3cnn(CC(F)(F)F)c3)ncc2F)nc1C(=O)NC1CNCC(F)C1 (stereo not shown) gave a remaining binding of 72% (RIPK5; KINOMEscan; 1 µM; baseline: DMSO control).
Under “biofilm mass reduction”, N=C(N)NCCC[C@@H]1NC(=O)[C@H](CCCNC(=N)N)NC(=O)[C@@H](CCCNC(=N)N)NC(=O)[C@@H](CCCNC(=N)N)NC(=O)[C@@H](C(c2ccccc2)c2ccccc2)NC(=O)[C@H](Cc2c[nH]c3ccccc23)NC(=O)[C@@H](C(c2ccccc2)c2ccccc2)NC1=O is recorded as 70% (Candida albicans; ATCC 60193; 2 x MIC, 24 h, preformed biofilm).
NCCOCCO.O=C(O)C(Cl)Cl gave a herbicidal inhibition of 0% (Xanthium sibiricum; 15 mg/mL, 21 days, post-emergence, greenhouse).
COC1CN([C@H]2CC[C@H]([C@@]3(C)Oc4c(Cl)cc(C(=O)NCc5c(SC)cc(C)[nH]c5=O)c(C)c4O3)CC2)C1 — result for “log2 fold change”: 0.291 (RNA-seq, item: PCGF5 mouse homolog; mouse, HT-1376 xenograft, whole blood; dose not given; baseline: vehicle).
CC(C)(C)NCC(SS(=O)(=O)O)c1ccccc1 (stereo not shown): “female worm burden reduction” 89% (Schistosoma mansoni; infected mice; 200 mg/kg single, day 42, perfusion day 56; baseline: vehicle).
C=CC(=O)Nc1cccc(Cn2ncc3cnc(Nc4cnn(CCOC)c4)nc32)c1: “percent of control” 84% (SLK human; binding, KINOMEscan; 100 nM; lower = stronger binding).
CN1CCCNC(=O)c2cccc(c2)C(=O)NCCCN(C)CCCNc2cccc3c2C(=O)c2cccc(c2C3=O)NCCC1: “log2 fold change” 1.38 (SAS; RNA-seq, item: AZIN1-AS1 mRNA; 1 µM, 6 h; baseline: untreated cells).
For Cc1cccc2c1N(C(=O)n1ccnn1)CC2, the germination rate was 66.7% and 68% and 80.8% and 75% and 71.7% and 78% (Arabidopsis thaliana; kai2 mutant, seeds; 3 µM, 72 h).
CNS(=O)(=O)Nc1nccc(Cc2c(C)c3ccc(Oc4ncccc4F)cc3oc2=O)c1F has an IC50 of 2.79 nM (SK-MEL-30; cell viability; 7 days).
For C=C[C@]1(C)C[C@@H](OC(=O)CSc2ccc(NC(=O)c3ccco3)cc2)[C@]2(C)[C@H](C)CC[C@]3(CCC(=O)[C@H]32)[C@@H](C)[C@@H]1O, the bactericidal dose was > 60 mg/kg (Mycoplasma gallisepticum; infected chickens, lung; intramuscular).
C=C(NC(=O)c1csc(-c2nc3c(cc2O)-c2nc(cs2)C(=O)NC(C(C)O)C(=O)NC(=C(C)OC)c2nc(cs2)C(=O)NC2c4nc(cs4)C(=O)NC(COC(=O)c4c5c6c(cccc6n4O)COC(=O)C(OC4CC(C)(O)C(N(C)C)C(C)O4)C2OC5)c2nc-3cs2)n1)C(N)=O (stereo not shown) — result for “lung bacterial load”: 3.8 log CFU/g (Streptococcus pneumoniae; -25, immunocompromised mice, lung infection; 8 mg/kg/day, twice daily, 24 h post-dose).
CCCOC(=O)N1c2cc(CNC)ccc2[C@H](NC(=O)C(=O)Nc2ccc(Cl)c(F)c2)[C@H]1CNC(=N)N has an IC80 of 25.1 µM (HIV-1; pseudovirus infection, Env pseudovirus neutralisation; TZM-bl, clade C T/F isolate 2A2).
COC(=O)c1cnc(-c2cnccn2)cc1C(=O)OC.COC(=O)c1cnc(-c2cnccn2)cc1C(=O)OC.F[P-](F)(F)(F)(F)F.[Ag+] gave an inhibition of 51 ± 5% (Candida albicans; biofilm formation, crystal violet staining; ATCC 10231; 3.5 µg/mL).
NCc1ccc(NC(=O)c2cc(-c3ccccc3)n(-c3ccccc3)n2)cc1 gave an inhibition of < 50% (Dengue virus; viral replication, inhibitor, imaging; Vero, DENV2; 12.5 µM).
Cc1ncsc1-c1ccc(C(C)NC(=O)C2CC(O)CN2C(=O)C(NC(=O)CCCCCCCCCCN2CCCC(Nc3ncc(Cl)c(Nc4ccccc4S(=O)(=O)C(C)C)n3)C2)C(C)(C)C)cc1 (stereo not shown) — result for “log2 fold change”: -1.58 (22Rv1; RNA-seq, item: ZNF471 mRNA; concentration not given; baseline: DMSO).
Cc1[nH]c2ccccc2c1CC(=O)N[C@@H](Cc1ccccc1)C(=O)N(C)c1ccccc1 has an EC50 of 410 ± 30 nM (human immunodeficiency virus 1; viral replication; NL4-3 with subtype B gag/pol).

Some of these lines once more:
CCC1(CC)CC(=O)N(C2CCOc3ccc(C(=O)NC4CC(C)(C)Oc5ccccc54)cc32)C(=N)N1 (stereo not shown) gave an EC50 of < 1 nM (Plasmodium vivax; invasion of reticulocytes; field isolates; ex vivo).
Nc1ncc(-c2cc(-c3cnn(CC(F)(F)F)c3)ncc2F)nc1C(=O)NC1CNCC(F)C1 (stereo not shown) gave a remaining binding of 72% (RIPK5; KINOMEscan; 1 µM; baseline: DMSO control).
